Measured values gathered from unrelated publications.
Compare with care: the assays were run in different laboratories. Values joined by “and” are separate records of one study, mostly repeats; a detail may differ. ± gives the spread as reported.
Cell line: SK-OV-3

SMILES = Cc1nc(NC(=O)N2CCC[C@H]2C(N)=O)sc1-c1ccnc(C(C)(C)C(F)(F)F)c1; assay = western blot, refers to: phospho-PKB/Akt Ser473; conditions = 2 h; quantity = IC50; value = 76.5 nM
SMILES = O=C(Nc1nnc2n3c(=S)[nH][nH]c3nc(-c3ccc(Cl)cc3)c1-2)c1ccccc1; assay = SRB; conditions = 10 µM, NCI60 single-dose screen; how to read = relative to: untreated; quantity = cell growth; value = 99.3%
SMILES = [NH2][Pt]([NH2])([Cl])[Cl]; assay = cell viability, CCK-8; conditions = single drug; quantity = IC50; value = 24800 ± 2700 nM
SMILES = C=CC(=O)N1CCC(COCC(=O)N2CCN(c3nc(-c4cnc(N)nc4C(F)F)nc(N4CCOC[C@@H]4C)n3)CC2)CC1; assay = western blot, refers to: phospho-PKB/Akt Ser473; conditions = 2 h; quantity = IC50; value = 21.1 nM
SMILES = O=C1NC(=NCc2cccs2)S/C1=C\c1ccc2ncccc2c1; assay = MTS; conditions = NCI60 panel; quantity = IC50; value = > 10000 nM
SMILES = Cn1cc(-c2ccc(F)c(C(F)(F)F)c2)nc1C1CCN(c2ncnc3[nH]ncc23)CC1; assay = ATP; system = 2D monolayer culture; conditions = 1 µM, 4 days; how to read = relative to: untreated; quantity = relative cell number; value = 103%
SMILES = COc1cnc2cccc(N3CCc4c(cc(Cn5ccnc5C)cc4-c4cn(C)nc4C(F)(F)F)C3=O)c2c1; assay = cell growth, inhibitor; conditions = 120 h; quantity = EC50; value = > 30000 nM
SMILES = Clc1ccc(C2(c3ccc(-c4cn[nH]c4)cc3)CCNCC2)cc1; assay = ATP; system = 2D monolayer culture; conditions = 0.01 µM, 4 days; how to read = relative to: untreated; quantity = relative cell number; value = 105%
SMILES = C=CC(=O)N1CCC(CCCC(=O)N2CCN(c3nc(-c4cnc(N)nc4C(F)F)nc(N4CCOCC4)n3)CC2)CC1; assay = Akt phosphorylation, inhibitor, in-cell western, refers to: Akt pSer473; conditions = 1 h; quantity = IC50; value = 21.5 nM
SMILES = C#C[C@@]1(O)[C@@H](CO)O[C@@H](n2cc(Cl)c3c(N)ncnc32)[C@@H]1O; assay = SRB; conditions = NCI-60 screen; quantity = TGI; value = 573 nM and 467 nM
SMILES = Cn1cncc1C1=CN(c2ncnc3[nH]cnc23)CCS1; conditions = ovarian cancer; quantity = GI50; value = 6800 nM
SMILES = CC(C)C[C@@H](C=O)NC(=O)[C@H](CC(C)C)NC(=O)[C@H](CC(C)C)NC(=O)OCc1ccccc1; assay = Western blot; system = 3D culture in gellan gum; conditions = 3 µM, 24 h, unit not given; how to read = relative to: β-actin; quantity = LATS protein level; value = 0.83 ± 0.16
SMILES = C[C@H](Nc1ccc2c(c1)OCCn1cc(N3C(=O)OC[C@H]3C(F)F)nc1-2)C(N)=O; assay = growth rate inhibition, CellTiter-Glo; conditions = 120 h; quantity = IC50; value = 251 nM
SMILES = CCn1cc(-c2cc(Cn3ccoc3=N)cc3c2CCN([C@@H](C)c2cc(OC)ccn2)C3=O)c(C(F)(F)F)n1; assay = cell growth, inhibitor; conditions = 120 h; quantity = EC50; value = > 30000 nM
SMILES = CO[C@@H]1C[C@@H](C[C@H]2CC[C@H](C)[C@H]([C@@H](C)C(=O)O)O2)O[C@]2(O[C@](C)([C@H]3CC[C@@](C)([C@@H]4O[C@@H]([C@H]5O[C@@](O)(CO)[C@H](C)C[C@@H]5C)C[C@@H]4C)O3)C[C@H]2C)[C@@H]1C; assay = FLICA; conditions = concentration not given; quantity = caspase-1 activation; value = positive
SMILES = C=CC(=O)N1CCC(C(=O)NCCN2CCN(c3nc(-c4cnc(N)nc4C(F)F)nc(N4CCOCC4)n3)CC2)CC1; assay = Akt phosphorylation, inhibitor, in-cell western, refers to: Akt pSer473; conditions = 1 h; quantity = IC50; value = 68.4 nM
SMILES = O=C(O)c1ccc(-c2c[nH]c3ncc(-c4ccccc4)cc23)cc1C1CCCC1; assay = ATP; system = 2D monolayer culture; conditions = 0.01 µM, 4 days; how to read = relative to: untreated; quantity = relative cell number; value = 109%
SMILES = C[C@H](Nc1ccc2c(c1)OCCn1cc(N3C(=O)OC[C@H]3C(F)F)nc1-2)C(N)=O; assay = resazurin growth rate inhibition; conditions = 72 h; quantity = GR50; value = > 5 µM
SMILES = CCn1c(-c2nonc2N)nc2cncc(CNC3CCNCC3)c21; assay = ATP; conditions = 1 µM, 4 days, 3D gellan gum culture; how to read = relative to: untreated; quantity = relative cell number; value = 69.4%
SMILES = C#C[C@@]1(O)[C@@H](CO)O[C@@H](n2ccc3c(N)ncnc32)[C@@H]1O; assay = SRB; conditions = NCI-60 screen; quantity = TGI; value = 5240 nM
SMILES = Cc1cc(=O)[nH]n1-c1nc(-c2ccc(Cl)cc2)c2c(NC(=O)c3ccccc3)nnc-2[nH]1; assay = SRB; conditions = 10 µM, NCI60 single-dose screen; how to read = relative to: untreated; quantity = cell growth; value = 108%
SMILES = C=CC(=O)N1CCC(COCC(=O)N2CCN(c3nc(-c4cnc(N)nc4C(F)F)nc(N4CCOCC4)n3)CC2)CC1; assay = Akt phosphorylation, inhibitor, in-cell western, refers to: Akt pSer473; quantity = IC50; value = 19.5 nM
SMILES = Cc1cc(-c2ccccc2)n(-c2nc(-c3ccc(Cl)cc3)c3c(NC(=O)c4ccccc4)nnc-3[nH]2)n1; assay = SRB; conditions = 10 µM, NCI60 single-dose screen; how to read = relative to: untreated; quantity = cell growth; value = 97.8%
SMILES = CC/C(=N\NC(=O)NCc1cccc(O)c1)c1ccc(O)c(C)c1O; assay = Western blot; conditions = 10 µM, 3 h, 2D culture, unit not given; how to read = relative to: DMSO; quantity = TAZ band intensity; value = 0.12 ± 0.07
SMILES = O=C(Nc1nnc2n3c(nc(-c4ccc(Cl)cc4)c1-2)SCC3=O)c1ccccc1; assay = SRB; conditions = 10 µM, NCI60 single-dose screen; how to read = relative to: untreated; quantity = cell growth; value = 94.7%
SMILES = CC/C(=N\NC(=O)C(C)Nc1ccccc1)c1ccc(O)c(C)c1O (stereo not shown); assay = Western blot, refers to: TAZ; conditions = 10 µM, 3 h, 3D gellan gum culture, unit not given; how to read = relative to: β-actin; quantity = protein level; value = 1.66 ± 0.14
SMILES = NNc1nc(-c2ccc(Cl)cc2)c2c(NC(=O)c3ccccc3)nnc-2[nH]1; assay = SRB; conditions = 10 µM, NCI60 single-dose screen; how to read = relative to: untreated; quantity = cell growth; value = 108%
SMILES = C=CC(=O)N1CCC(CN(C)CC(=O)N2CCN(c3nc(-c4cnc(N)nc4C(F)F)nc(N4CCOCC4)n3)CC2)CC1; assay = Akt phosphorylation, inhibitor, in-cell western, refers to: Akt pSer473; conditions = 1 h; quantity = IC50; value = 38.3 nM

Repeated from above:
SMILES = [NH2][Pt]([NH2])([Cl])[Cl]; assay = cell viability, CCK-8; conditions = single drug; quantity = IC50; value = 24800 ± 2700 nM
SMILES = CCn1c(-c2nonc2N)nc2cncc(CNC3CCNCC3)c21; assay = ATP; conditions = 1 µM, 4 days, 3D gellan gum culture; how to read = relative to: untreated; quantity = relative cell number; value = 69.4%
